Assay results from different studies.
Lines come from different studies, so protocols differ. Numbers after ± are the reported error.
Fibroin-modulator-binding protein-1: Fibroin-modulator-binding protein-1 99-193 (Bombyx mori, UniProt Q5FBS0)
B1: CFH 1108-1231 R1203S (Homo sapiens, UniProt P08603); sequence looked up; chain KCGPPPPIDNGDITSFPLSVYAPASSVEYQCQNLYQLEGNKRITCRNGQWSEPPKCLHPCVISREIMENYNIALRWTAKQKLYSRTGESVEFVCKSGYRLSSRSHTLRTTCWDGKLEYPTCAKR
B2: dnaG 537-597 (Geobacillus stearothermophilus, UniProt Q9X4D0); chain MAADDVSEQELEDYIRHVLNRPKWLMLKVKEQEKTEAERRKDFLTAARIAKEMIEMKKMLSSS
B3: DTNA 458-564 (Homo sapiens, UniProt Q9Y4J8-1); sequence looked up; chain SAPDISFTIDANKQQRQLIAELENKNREILQEIQRLRLEHEQASQPTPEKAQQNPTLLAELRLLRQRKDELEQRMSALQESRRELMVQLEGLMKLLKTQGAGSPRSS
B4: Cacna1c 1647-1777 (Mus musculus, UniProt Q01815); sequence looked up; chain NALSLQAGLRTLHDIGPEIRRAISGDLTAEEELDKAMKEAVSAASEDDIFRRAGGLFGNHVTYYQSDSRGNFPQTFATQRPLHINKTGNNQADTESPSHEKLVDSTFTPSSYSSTGSNANINNANNTALGR

| Substance | target or system | test | test system | conditions | how to read | endpoint | result |
| --- | --- | --- | --- | --- | --- | --- | --- |
| GSGAGKETSF | human MAGI1-2/6 PDZ construct (MBP fusion) | automated holdup | peptide, purified PDZ protein | concentration not given, unit not given | baseline: biotin control resin, higher = stronger binding | binding intensity | 0.0233 |
| B1 (CFH 1108-1231 R1203S) | C3 996-1303 (Homo sapiens, UniProt P01024) | SPR | – | – | – | Kd | 13.7 ± 0.3 µM |
| PUX7 fragment (Arabidopsis thaliana) | CDC48A 1-463 (Arabidopsis thaliana, UniProt P54609) | ITC | – | 10 °C | – | Kd | 3.2 ± 0.4 µM |
| QEDIIRNIARHLAQVGDSMDRSIPPG (BID 79-104 (Homo sapiens, UniProt P55957); sequence looked up) | BCL2L1 1-208 N52D/N66D (Homo sapiens, UniProt Q07817-1) | ITC | peptide | – | – | Kd | 1.1 µM |
| protein (Arabidopsis thaliana, UniProt Q9SJV0) | CDC48A (Arabidopsis thaliana, UniProt P54609) | ITC | – | together with: AMPPNP | – | Kd | 3.1 µM |
| ATGCATGCATGC (dsDNA) | Fibroin-modulator-binding protein-1 | ITC | double-stranded DNA, one strand shown | – | – | Kd | 1.59 ± 0.15 µM |
| ALLQWVAQV | Jurkat T cells expressing 1G4 TCR | NFAT-eGFP reporter, flow cytometry | peptide | concentration not given, HLA-A*02:01 NY-ESO system | – | reporter activation | 15.9% |
| B2 (dnaG 537-597) | dnaB (Geobacillus stearothermophilus, UniProt Q9X4C9) | pull-down | – | – | – | Kd | < 0.001 µM |
| B3 (DTNA 458-564) | DMD 3365-3685 (Homo sapiens, UniProt P11532-1) | ITC | – | – | – | Kd | 0.98 µM |
| RRAQRQRRWEKRTAGVVEKMQQRQDRRR (SURF6 299-326 (Homo sapiens, UniProt O75683); sequence looked up) | NPM1 (Homo sapiens, UniProt P06748) | fluorescence polarisation | peptide | apparent | – | Kd | 15.1 ± 1.7 µM |
| LE1 (Glycine max, UniProt P05046) | asialo ovine submaxillary mucin, asialo (sialic acid removed) (Ovis aries) | protein array | – | – | – | Kd | 0.0006 µM |
| CTTACTTACTTA (dsDNA) | Fibroin-modulator-binding protein-1 | ITC | double-stranded DNA, one strand shown | – | – | Kd | 3.19 ± 0.42 µM |
| human alpha-1-acid glycoprotein 1 | – | co-immunoprecipitation | human RBC cytosol | no crosslinker, unit not given, together with: Band 3 peptide 1-56 bait | baseline: negative control | co-IP enrichment | 0 |
| B4 (Cacna1c 1647-1777) | Jph2 1-440 S165V (Mus musculus, UniProt Q9ET78) | ITC | – | – | – | Kd | 8.87 µM |
| GCVRLHESCLGQQVPCCDPAATCYCTGRGDEKLRCYCR (designed peptide AgRP scaffold) | ITGAV/ITGB3 K562 cells | flow cytometry | designed binder, U87MG | – | – | Kd | 0.015 µM |
| SCN2A fragment R1914A (Homo sapiens) (sequence not shown) | CALM1 (Homo sapiens, UniProt P0DP23) | fluorescence titration | – | pH 7.4, 22 °C, together with: calcium | – | Kd | 0.298 µM |

For quick reference, copied from above:
| Substance | target or system | test | test system | conditions | how to read | endpoint | result |
| --- | --- | --- | --- | --- | --- | --- | --- |
| RRAQRQRRWEKRTAGVVEKMQQRQDRRR (SURF6 299-326 (Homo sapiens, UniProt O75683); sequence looked up) | NPM1 (Homo sapiens, UniProt P06748) | fluorescence polarisation | peptide | apparent | – | Kd | 15.1 ± 1.7 µM |
